Measured values gathered from unrelated publications.
Each line is one published result; not all experiments were run side by side. “And” joins repeats or separate records; there may be more than shown. ± marks the error that the study gave.
FFAR4: Free fatty acid receptor 4 (FFAR4, Homo sapiens, UniProt Q5NUL3)
Maoa: Amine oxidase [flavin-containing] A (Maoa, Rattus norvegicus, UniProt P21396)
GAP50: Glideosome-associated protein 50 (GAP50, Plasmodium falciparum, UniProt Q8I2X3)
NADH dehydrogenase [ubiquinone] iron-sulfur protein 7, mitochondrial/NADH dehydrogenase [ubiquinone] iron-sulfur protein 2, mitochondrial/MT-ND1: NADH dehydrogenase [ubiquinone] iron-sulfur protein 7, mitochondrial/NADH dehydrogenase [ubiquinone] iron-sulfur protein 2, mitochondrial/MT-ND1 (Homo sapiens, UniProt O75251+O75306+P03886)
TRPM8: Transient receptor potential cation channel subfamily M member 8 (TRPM8, Homo sapiens, UniProt Q7Z2W7)
Kir3.1/Kir3.2: Kir3.1/Kir3.2 (Homo sapiens, UniProt P48051+P48549)

CC(C)(C)CNc1cc(=O)[nH]c(=O)[nH]1
inhibition (FFAR4; antagonist, β-arrestin recruitment; CHO cells; 10 µM): 23 ± 6%

CC1=C(/C=C\C2=CCC[C@]3(C)[C@@H]([C@H](C)CCCC(C)C)CC[C@@H]23)C[C@@H](O)CC1
initial metabolism rate (Cholesterol side-chain cleavage enzyme, mitochondrial (Bos taurus, UniProt P00189); substrate, HPLC; 20 µM, 37 °C, together with: 2-hydroxypropyl-beta-cyclodextrin 0.9%): ~3 mol/min/mol enzyme

O=[N+]([O-])c1cc(C(F)(F)F)ccc1NCc1ccco1
ΔG (Endothelial PAS domain-containing protein 1, PAS-B domain (EPAS1, Homo sapiens, UniProt Q99814); binding, ITC, reverse mode): -8.04 ± 0.21 kcal/mol

NN=C1NC(=O)C2(CCc3ccccc32)C(=O)N1 (stereo not drawn)
Emax (GABA-A receptor; alpha-1/beta-3/gamma-2 (Homo sapiens, UniProt P14867+P18507+P28472); 300 µM): -2%

CCCCCCCNc1[nH]c(=O)[nH]c(=O)c1N=O
agonist effect (FFAR4; agonist, β-arrestin recruitment; CHO cells; 10 µM; relative to: 30 µM TUG-891): 0%

NCc1ccc(F)cc1
log Kd (Maoa; pKa-corrected): -5.8 M

O=C(COP(=O)(O)O)[C@@H](O)[C@H](O)[C@H](O)COP(=O)(O)O
thermal stability ratio (Cleavage and polyadenylation specificity factor subunit 2 (Homo sapiens, UniProt Q9P2I0); thermal proteome profiling, refers to: CPSF2; HepG2 cell lysate; concentration not given, 57 over 37 °C, mean; relative to: compound over control): 0.585

CCCCCCNc1cc(=O)[nH]c(=O)n1C
inhibition (FFAR4; antagonist, β-arrestin recruitment; CHO cells; 10 µM): 19 ± 7%

Cc1ccc(C(=O)NCc2ccc(CNS(=O)(=O)c3ccccc3)cc2)cc1
EC (CXCR4 (Homo sapiens, UniProt P61073); binding, inhibitor, competitive binding; MDA-MB-231; together with: biotinylated TN14003): 100 nM

CNC(=O)[C@@H]1Cc2c([nH]c3cc(Cl)ccc23)C2(CCN(CCc3ccccc3)CC2)N1
koff (GAP50; binding, surface plasmon resonance; 1:1 binding model): 0.406 s⁻¹

NCc1ccc(C(F)(F)F)cc1
kcat (Maoa; substrate; pH 7.5, 25 °C, α,α-protio substrate): 5.56 s⁻¹

Oc1ccccc1-c1n[nH]cc1-c1ccnc2ccccc12
log2 fold change (YCK2 (Candida albicans, UniProt A0A1D8PKB4); kinase binding, MIB/MS competition; Candida albicans lysate; 10 µM; relative to: DMSO, negative = stronger binding): -2.01

Cc1ccc(Oc2ccc(NC(=O)CNc3ccccc3N3CCCC3=O)cc2)cc1
koff (GAP50; binding, surface plasmon resonance; 1:1 binding model): 0.321 s⁻¹

NC(=O)NOCCCCCCCCCC[P+](c1ccccc1)(c1ccccc1)c1ccccc1.O=C([O-])C(F)(F)F
oxygen consumption rate (NADH dehydrogenase [ubiquinone] iron-sulfur protein 7, mitochondrial/NADH dehydrogenase [ubiquinone] iron-sulfur protein 2, mitochondrial/MT-ND1; complex I-dependent respiration, Seahorse XF96; HCT-116; 10 µM, 24 h; relative to: control): 53.4 ± 4.96%

Cc1nc(CSc2nc(SCc3ccc(C(C)C)cc3)nc(=O)[nH]2)cs1
linear DNA (TOP2A (Homo sapiens, UniProt P11388); DNA cleavage; 125 µM, replicate 2): 3.67%

NC(=O)NOCCCCCCCCCCCCCCCC[P+](c1ccccc1)(c1ccccc1)c1ccccc1.O=C([O-])C(F)(F)F
oxygen consumption rate (NADH dehydrogenase [ubiquinone] iron-sulfur protein 7, mitochondrial/NADH dehydrogenase [ubiquinone] iron-sulfur protein 2, mitochondrial/MT-ND1; complex I-dependent respiration, Seahorse XF96; HCT-116; 5 µM, 24 h; relative to: control): 9.68 ± 1.36%

COc1cc2c(cc1OC)CN(CCCNC(=O)c1ccc(C(=O)c3ccc([N+](=O)[O-])cc3)cc1)CC2
Ki ratio (TMEM97 (Homo sapiens, UniProt Q5BJF2); radioligand binding; RT-4 cell membranes; relative to: sigma1 Ki over sigma2 Ki): > 8.31

O=c1cc(NCCOc2ccccc2)[nH]c(=O)[nH]1
inhibition (FFAR4; antagonist, β-arrestin recruitment; CHO cells; 10 µM): 27 ± 6%

CN(CCCCCCNC(=O)COc1ccc(C2CCC(=O)NC2=O)cc1)Cc1cn(Cc2ccc(C(=O)NO)cc2)c2ccccc12.O=C(O)C(F)(F)F (stereo not drawn)
degradation (HDAC10 (Homo sapiens, UniProt Q969S8); degrader, western blot; MM1.S; 1 µM, 24 h): 75%

O=C(Nc1ccccc1-c1nc2c(C(=O)O)cccc2o1)c1ccccc1
kon (GAP50; binding, surface plasmon resonance; 1:1 binding model): 234 M⁻¹ s⁻¹

COc1ccc(Cl)cc1NC(=O)Nc1cc(C)nc2ccccc12
remaining activity (TRPM8; antagonist; HEK293; 5 µM; relative to: control): 96.9 ± 5.34%

O=C(COc1ccc(Cl)cc1Cl)NCc1cccs1
activity (Kir3.1/Kir3.2; activator, thallium flux; HEK293; concentration not given): inactive

O=C(Nc1nnc(-c2ccc(Cl)s2)o1)c1ccc(Cl)s1
kon (GAP50; binding, surface plasmon resonance; 1:1 binding model): 37200 M⁻¹ s⁻¹

N[C@@H](Cc1ccccc1)C(=O)O
cAMP level (ADRB1 (Homo sapiens, UniProt P08588); HEK293 expressing β1AR; 100 nM): 17.5 pmol/mg protein and 20.4 pmol/mg protein and 19.4 pmol/mg protein and 25.6 pmol/mg protein and 19.8 pmol/mg protein

COc1cc(C(=O)NS(=O)(=O)c2ccccc2C)ccc1Cc1cn(C)c2ccc(NC(=O)OC3CCCC3)cc12
inhibition time constant (LRRC8A/LRRC8C (Homo sapiens, UniProt Q8IWT6+Q8TDW0); whole-cell patch clamp; HCT116 LRRC8-/- expressing LRRC8A/C; 30 µM, +100 mV): 400 s

NCCCCC(=O)O
thermal shift (uncharacterized protein (Pelagibacter ubique, UniProt Q4FKZ8); differential scanning fluorimetry; Candidatus Pelagibacter ubique; in-house screen): 3.57 °C

N#Cc1c(NC(=O)c2cccc3ccccc23)sc2c1CCCC2
remaining activity (TRPM8; antagonist; HEK293; 5 µM; relative to: control): 76.9 ± 7.79%

CCCCCCNc1[nH]c(=O)[nH]c(=O)c1Br
inhibition (FFAR4; antagonist, β-arrestin recruitment; CHO cells; 10 µM, together with: 4 µM TUG-891): 6 ± 4%

Nc1ncnc2c1ncn2[C@@H]1O[C@H](COP(=O)(O)OP(=O)(O)OP(=O)(O)O)[C@@H](O)[C@H]1O
Km (Hexokinase-3 (HK3, Homo sapiens, UniProt P52790, D264A/R265A); substrate; mutant D264A/R265A, together with: glucose 0.5 mM): 1900 ± 100 µM

O=C(O)C1CCCNC1 (stereo not drawn)
normalised MST signal (SLC6A6 (Homo sapiens, UniProt P31641, Y138A); binding, microscale thermophoresis; 1.95 µM, room temperature, together with: 50 nM labelled protein; higher = more binding): 0.0508

CC(=O)N[C@@H](CSC(=O)[C@]1([C@@H](O)C(C)C)NC(=O)[C@H](C)[C@@H]1O)C(=O)O
proteasome activity (Psmb5 (Rattus norvegicus, UniProt P28075); RIN-m5F; concentration not given, 24 h, together with: Suc-LLVY-AMC; relative to: control): decreased

COC(=O)c1ccc(NC(=O)COc2cc(Cl)ccc2Cl)s1
activity (Kir3.1/Kir3.2; activator, thallium flux; HEK293; concentration not given): inactive

O=C(c1cc2cc(O)ccc2[nH]1)c1cc2cc(O)ccc2[nH]1
remaining activity (TRPM8; antagonist; HEK293; 5 µM; relative to: control): 100 ± 9.57%

O=C(NC1CCC1)c1ccc2nc(-c3cccc(NS(=O)(=O)NCCN4CCCCC4)c3)cn2c1
protein level (Protein ENL (MLLT1, Homo sapiens, UniProt Q03111); degrader, immunoblot, refers to: MLLT1; 10 µM, 2 h; relative to: DMSO control): 19%

O=C1c2ccccc2-[n+]2ccc3c([nH]c4ccccc43)c21
remaining activity (TRPM8; antagonist; HEK293; 5 µM): 104 ± 13.7%

CO[C@H]1O[C@H](COS(=O)(=O)O)[C@@H](O[C@@H]2O[C@@H](C(=O)O)[C@@H](O[C@H]3O[C@H](COS(=O)(=O)O)[C@@H](O[C@@H]4O[C@H](C(=O)O)[C@@H](O[C@H]5O[C@H](COS(=O)(=O)O)[C@@H](O)[C@H](O)[C@H]5NS(=O)(=O)O)[C@H](O)[C@H]4O)[C@H](OS(=O)(=O)O)[C@H]3NS(=O)(=O)O)[C@H](O)[C@H]2OS(=O)(=O)O)[C@H](O)[C@H]1NS(=O)(=O)O
binding stoichiometry (Beta-2-glycoprotein 1, domain V (APOH, Homo sapiens, UniProt P02749, V266L); isothermal titration calorimetry; concentration not given, 298 K, together with: 100 mM NaCl): 0.96 ± 0.05

Cc1cc2c(c(=O)[nH]1)C(=O)O/C2=C\c1ccccc1OCC1CC1
ligand efficiency (Dual specificity calcium/calmodulin-dependent 3',5'-cyclic nucleotide phosphodiesterase 1C, isoform PDE1C2 (PDE1C, Homo sapiens, UniProt Q14123); enzyme activity, inhibitor; together with: 3H-cGMP substrate): 0.38

NC(=O)NOCCCCCCCCCCCC[P+](c1ccccc1)(c1ccccc1)c1ccccc1.O=C([O-])C(F)(F)F
oxygen consumption rate (NADH dehydrogenase [ubiquinone] iron-sulfur protein 7, mitochondrial/NADH dehydrogenase [ubiquinone] iron-sulfur protein 2, mitochondrial/MT-ND1; complex I-dependent respiration, Seahorse XF96; HCT-116; 1 µM, 24 h; relative to: control): 76.2 ± 4.73%

CCCCCCCC/C=C\CCCCCCCC(=O)NCCc1ccc(O)c(O)c1
maximal open probability (Trpv1 (Mus musculus, UniProt Q704Y3, S511T); ion current, agonist, whole-cell patch clamp; S511T; relative to: 3 mM 2-APB): 0.8 ± 0.12

C[C@@H](O)[C@@H](CO)NC(=O)[C@@H](CCCNC(=N)N)NC(=O)[C@@H]1CCCN1C(=O)[C@@H]1CSSC[C@H](NC(=O)[C@H](Cc2ccccc2)NC(=O)CN2CCN(CC(=O)O)CCN(CC(=O)O)CCN(CC(=O)O)CC2)C(=O)N[C@@H](Cc2ccc(O)cc2)C(=O)N[C@@H](Cc2ccccc2)C(=O)N[C@@H](CCC(N)=O)C(=O)N[C@@H](CC(N)=O)C(=O)N1 [gallium-68 labelled]
binding (AVPR1B (Homo sapiens, UniProt P47901); receptor binding, radioimmunoassay; concentration not given, together with: vasopressin V1b 62.5 nM): 23% and 26.4% and 27.7%

O=c1cc(NCCc2cccs2)[nH]c(=O)[nH]1
activation (FFAR4; agonist, β-arrestin recruitment; CHO cells; 10 µM): 0%

C=CC(=O)N1CCC(COCC(=O)N2CCN(c3nc(-c4cnc(N)nc4C(F)F)nc(N4CCOC[C@@H]4C)n3)CC2)CC1
remaining binding (MYLK4 (Homo sapiens, UniProt Q86YV6); KINOMEscan; 1 µM): 100%

For quick reference, copied from above:
COc1cc(C(=O)NS(=O)(=O)c2ccccc2C)ccc1Cc1cn(C)c2ccc(NC(=O)OC3CCCC3)cc12
inhibition time constant (LRRC8A/LRRC8C (Homo sapiens, UniProt Q8IWT6+Q8TDW0); whole-cell patch clamp; HCT116 LRRC8-/- expressing LRRC8A/C; 30 µM, +100 mV): 400 s

NCCCCC(=O)O
thermal shift (uncharacterized protein (Pelagibacter ubique, UniProt Q4FKZ8); differential scanning fluorimetry; Candidatus Pelagibacter ubique; in-house screen): 3.57 °C

N#Cc1c(NC(=O)c2cccc3ccccc23)sc2c1CCCC2
remaining activity (TRPM8; antagonist; HEK293; 5 µM; relative to: control): 76.9 ± 7.79%

CCCCCCNc1[nH]c(=O)[nH]c(=O)c1Br
inhibition (FFAR4; antagonist, β-arrestin recruitment; CHO cells; 10 µM, together with: 4 µM TUG-891): 6 ± 4%
